Assay results of several laboratories.
Lines come from different studies, so protocols differ. Values joined by “and” are separate records of one study, mostly repeats; a detail may differ. Numbers after ± are the reported error.

Structure (SMILES) | cell line | assay | conditions | scale | quantity | value
CC(C)(c1ccc(O)cc1)c1ccc(O)cc1 | HepG2 spheroids | annexin V/PI flow cytometry | 10 µM, 96 h | – | viability | 53 ± 8%
COc1cc2ncnc(Nc3ccc(Oc4ccccc4)cc3C)c2cc1OC.O=C(O)C(F)(F)F | Calu-6 (KRAS Q61K) | resazurin | concentration not given, 72 h, added: trametinib 0 nM | – | viability | 0.951 fraction of control and 0.931 fraction of control and 0.943 fraction of control and 0.989 fraction of control and 0.954 fraction of control and 0.936 fraction of control and 0.957 fraction of control and 0.903 fraction of control
COc1ccc(Cn2cc(CO[C@@H]3O[C@H]4[C@H](OC[C@H]4O)[C@H]3O)nn2)cc1 | CHO-K1 | cytotoxicity, CellTiter-Glo | up to 30 µM, 72 h | – | viability | not toxic
O=C1c2cccc(O)c2C(=O)c2c(O)cc(CO)cc21 | HK-2 co-cultured with HepaRG | MTT | 66.67 µM, 48 h | relative to: untreated control | viability | 68.3 ± 8.04%
CCCCCCCCN(CCC(=O)Nc1ccccc1)C(=O)[C@@H]1CCCN1 | Lmna G609G/G609G mouse fibroblasts | MTT | 2 µM, 72 h | relative to: vehicle-treated wild type | viability | 70 ± 5%
O[C@H]1[C@H](OCc2cn(Cc3ccc(F)cc3)nn2)O[C@H]2[C@@H]1OC[C@H]2O | CHO-K1 | cytotoxicity, CellTiter-Glo | up to 30 µM, 72 h | – | viability | not toxic
Cc1ccc(CNC(=O)Cn2cc(CSc3nc4ccccc4[nH]3)nn2)cc1 | HEK293 | MTT | 62.5 ppm | – | viability | 13.8%
CCO[C@H]1CN(C2CCC(O)(c3ccc4c(c3)OCO4)CC2)C[C@@H]1NC(=O)CNC(=O)c1cccc(C(F)(F)F)c1 (stereo partly drawn) | THP-1 | Hoechst/PI staining | 10 µM, 5 h, added: 10 nM CCL2 | – | viability | no effect
COc1c(O)c(C)cc2c1C(=O)c1c(cc(O)c(O)c1O)C2=O | HK-2 co-cultured with HepaRG | MTT | 266.67 µM, 24 h | relative to: untreated control | viability | 106 ± 18.3%
CCc1c(-c2ccccc2)c(-c2ccccc2)nn1-c1ccccc1-c1cccc(OCC(=O)O)c1 | mouse bone marrow macrophages | CCK-8 | 100 µM, 4000 cells | relative to: untreated | viability | 46.8% and 42.2% and 45.9% and 52.7% and 50.2% and 52.6%
NC[C@H]1O[C@H](O[C@H]2[C@H](O)[C@@H](O[C@H]3O[C@H](CO)[C@@H](O)[C@H](N)[C@H]3O)[C@H](N)C[C@@H]2N)[C@H](O)[C@@H](O)[C@@H]1O | THP-1 | pyroptotic LDH release | 2 µM, 40 min, added: LPS then nigericin | – | inhibition | 6.33%
Cc1cc(O)c2c(c1)C(=O)c1cc(O)cc(O)c1C2=O | HK-2 co-cultured with HepaRG | MTT | 16.67 µM, 48 h | relative to: untreated control | viability | 91.2 ± 7.62%
C[C@@H]1[C@H]2[C@H](O[C@@H]3O[C@H](CO)[C@@H](O)[C@H](O)[C@H]3O)OC=C(C(=O)O)[C@H]2C[C@@H]1O | THP-1 | pyroptotic LDH release | 2 µM, 40 min, added: LPS then nigericin | – | inhibition | 41.8%
COc1cc(CCc2cc(OC)c(O)c(OC)c2)ccc1O | 3T3-L1 pre-adipocytes | MTT | 20 µM, 48 h | – | viability | 70.7 ± 7.93%
COc1c(O)c(C)cc2c1C(=O)c1c(O)cccc1C2=O | HK-2 co-cultured with HepaRG | MTT | 16.67 µM, 48 h | relative to: untreated control | viability | 94.9 ± 11.1%

Repeated from above:
Structure (SMILES) | cell line | assay | conditions | scale | quantity | value
COc1c(O)c(C)cc2c1C(=O)c1c(cc(O)c(O)c1O)C2=O | HK-2 co-cultured with HepaRG | MTT | 266.67 µM, 24 h | relative to: untreated control | viability | 106 ± 18.3%
CCc1c(-c2ccccc2)c(-c2ccccc2)nn1-c1ccccc1-c1cccc(OCC(=O)O)c1 | mouse bone marrow macrophages | CCK-8 | 100 µM, 4000 cells | relative to: untreated | viability | 46.8% and 42.2% and 45.9% and 52.7% and 50.2% and 52.6%
